Experimental data collected from several papers.
Each line is one published result; not all experiments were run side by side. ± gives the spread as reported.
Cell line: Caco-2

`CNC(=C[N+](=O)[O-])NCCSCc1ccc(CN(C)C)o1` gave a Papp A-B of < 1 ×10⁻⁶ cm/s (10 µM, 2 h).
For `COCC(=O)OCc1cc2[nH]c(=S)n(Cc3cccnc3)c(=O)c2cc1Cl`, “Papp (B to A)” read 0.1 ×10⁻⁶ cm/s (10 µM, 90 min, pH 7.4, 0.1% BSA receiver side).
`C[C@]12CC[C@@H]3c4ccc(OS(=O)(=O)O)cc4CC[C@H]3[C@@H]1CCC2=O` — result for “Papp (B to A)”: 12.6 ×10⁻⁶ cm/s (no inhibitor, BCRP (novobiocin) set).
`C=CC(=O)Nc1cc(Nc2nccc(-c3cn(C)c4ccccc34)n2)c(OCC(F)(F)F)nc1N(C)CCN(C)C`: “Papp A to B” 0.53 ×10⁻⁶ cm/s (45 µM).
`C[C@H]1CNCCN1c1nccc(-c2onc3c2CCC[C@@]32CCCc3sc(N)c(C#N)c32)n1` — result for “Papp (A to B)”: 21 ×10⁻⁶ cm/s.
`Cc1cc(Nc2cc3ncccc3c(N[C@@H]3C[C@H]4CC[C@@H](C3)N4CCC#N)n2)n[nH]1` gave a Papp B-A of 37.9 ×10⁻⁶ cm/s (5 µM, 120 min).
For `CC(=O)CC(c1ccccc1)c1c(O)c2ccccc2oc1=O` (stereo not shown), the recovery B-A was 84% (10 µM, 2 h).
With `COc1nc(NCc2cn(-c3ccc(NC(=O)c4ccc([N+](=O)[O-])cc4)cc3)nn2)nc(OC)n1` the selectivity ratio was 0.01 (MTT; baseline: normal rat colonocytes over Caco-2).
`NS(=O)(=O)c1nnc(NC(=O)C2CCCC3(CCCCC3)C2)s1` (stereo not shown): “Papp A to B” 5.5 ×10⁻⁶ cm/s.
The recovery of `C[C@H]1O[C@@H](O[C@H]2[C@@H](O)C[C@H](O[C@H]3[C@@H](O)C[C@H](O[C@H]4CC[C@@]5(C)[C@H](CC[C@@H]6[C@@H]5C[C@@H](O)[C@]5(C)[C@@H](C7=CC(=O)OC7)CC[C@]65O)C4)O[C@@H]3C)O[C@@H]2C)C[C@H](O)[C@@H]1O` is reported as 87% (5 µM, 2 h, apical to basolateral).
`CCCOc1nc(-c2cccc(O)c2)cc(-c2cc3ccccc3nc2N2CCOCC2)c1C#N` gave a selectivity ratio of 0.931 (MTT; 72 h, 10% FBS; baseline: WI-38 EC50 over Caco-2 IC50).
`CC[C@H]1OC(=O)[C@H](C)[C@@H](O[C@H]2C[C@@](C)(OC)[C@@H](O)[C@H](C)O2)[C@H](C)[C@@H](O[C@@H]2O[C@H](C)C[C@H](N(C)C)[C@H]2O)[C@](C)(O)C[C@@H](C)C(=O)[C@H](C)[C@@H](O)[C@]1(C)O` has a mass balance of 106 ± 13.8% (60 min, basolateral to apical).
`C1CCc2c(c(N3CCOCC3)nc3sc4c(N5CCNCC5)nnnc4c23)C1` has a Papp A-B of 5.88 ×10⁻⁶ cm/s (10 µM, 120 min, pH 7.4, without inhibitor).
The recovery of `O=C(Nc1ccc(CN2CCOCC2)c(C(F)(F)F)c1)c1ccc(C#Cc2cccc3cnccc23)cn1` is reported as 92.9% (5 µM, 120 min, B-to-A, basolateral dosing).
With `COc1ccc(NC(=O)c2ccc(-n3cc(CNc4nc(OC)nc(OC)n4)nn3)cc2)cc1` the selectivity ratio was 0.26 (MTT; baseline: normal rat colonocytes over Caco-2).
`CC(C)C[C@@H]1NC(=O)[C@H](C)NC(=O)[C@H](Cc2ccccc2)NCC2=CC=C(CN(C)C1=O)O2` has a Papp of 9.1 ×10⁻⁶ cm/s.
`O=C(Nc1c2c(cc3c1CCC3)CCC2)NS(=O)(=O)/C=C/c1nccs1`: “Papp B to A” 10.8 ± 1.17 ×10⁻⁶ cm/s (2 µM, 120 min, pH 7.4).
`COc1nc(NCc2cn(-c3ccc(C(N)=O)cc3)nn2)nc(OC)n1` has a selectivity ratio of 0.02 (MTT; baseline: normal rat colonocytes over Caco-2).
With `CCOc1nc(-c2cccc(O)c2)cc(-c2cc3ccccc3nc2N2CCOCC2)c1C#N` the selectivity ratio was 0.27 (MTT; 72 h, 10% FBS; baseline: WI-38 EC50 over Caco-2 IC50).
`Cc1ccc(CCC(=O)Nc2nnc(S(N)(=O)=O)s2)cc1`: “Papp A to B” 8.3 ×10⁻⁶ cm/s.
`Cc1ccc(NC(=O)c2ccc(P(C)(C)=O)cc2)cc1Nc1nccc(-c2cccnc2)n1` has a Papp(A-B) of 0.1 ×10⁻⁶ cm/s.
`COc1nc(NCc2cn(-c3ccc(NC(=O)c4ccccc4)cc3)nn2)nc(OC)n1` has a selectivity ratio of 0.07 (MTT; baseline: normal rat colonocytes over Caco-2).
Under “Papp (B to A)”, `O=c1c2cc(Cl)ncc2[nH]c(=S)n1Cc1cccnc1` is recorded as 42.9 ×10⁻⁶ cm/s (10 µM, 90 min, pH 7.4, 0.1% BSA receiver side).
`COc1nc(NCc2cn(-c3ccc(NC(=O)c4ccc(Br)cc4)cc3)nn2)nc(OC)n1` gave a selectivity ratio of 0.02 (MTT; baseline: normal rat colonocytes over Caco-2).
The recovery of `CCCCC(CC)CNC(=N)NC(=N)NCCCCCCNC(=N)NC(=N)NCC(CC)CCCC` (stereo not shown) is reported as 28.1% (5 µM, 2 h, basolateral to apical).
Under “Papp (B to A)”, `CC(=O)OCc1cc2[nH]c(=S)n(Cc3cccnc3)c(=O)c2cc1Cl` is recorded as 0.1 ×10⁻⁶ cm/s (10 µM, 90 min, pH 7.4, 0.1% BSA receiver side).
The apparent permeability of `Cc1ccc(N(c2ccc(NC(=O)CN(C)c3ccccc3N3CCCC3=O)cc2)C(C)C)cc1` is reported as 2.52 ×10⁻⁶ cm/s (basolateral to apical).
`CCCCC(CC)COC(=O)c1ccc(O)cc1` (stereo not shown) gave a hydrolysed compound of 8.9 ± 1.5% (5 µM, 60 min, A-B direction).
`C#Cc1c(F)ccc2cc(O)cc(-c3ncc4c(N5CC6CCC(C5)N6)nc(OC[C@@]56CCCN5C[C@H](F)C6)nc4c3F)c12` — result for “Papp (A to B)”: < 0.479 ×10⁻⁶ cm/s (no inhibitor, P-gp (verapamil) set).
`Cc1ccccc1CN1C(=O)C2=C(CCN(Cc3ccccc3)C2)N2CCN=C12` gave an apparent permeability of 27 ×10⁻⁶ cm/s (apical to basolateral).
`O=C(O)C=Cc1ccc(O)cc1` has a recovery of 89% (Transwell mass balance; 1 mM, time not given, apical to basolateral).
`CO[C@@H](C[C@H]1C(C)=CC[C@@H]2[C@]3(C)C[C@H](O[C@@H]4O[C@@H](C)[C@H](OC(=O)c5cccc(O)c5)[C@@H](O[C@@H]5O[C@H](CO)[C@@H](O)[C@H](O)[C@H]5NC(C)=O)[C@H]4O)[C@@H](O)C(C)(C)[C@H]3CC[C@]21C)[C@H](N)C(=O)O.O=C(O)C(F)(F)F` — result for “Papp A-B mean”: 0.01 ×10⁻⁶ cm/s (5 µM, 1 h).
`CCOc1cc(C(C)(C)C)ccc1C1=N[C@@H](c2ccc(Cl)cc2)[C@@H](c2ccc(Cl)cc2)N1C(=O)N1CCN(CC(=O)NCCOCCOCCOCCNC(=O)CN2CCN(C(=O)N3C(c4ccc(C(C)(C)C)cc4OCC)=N[C@@H](c4ccc(Cl)cc4)[C@H]3c3ccc(Cl)cc3)CC2=O)C(=O)C1` (relative stereo) — result for “Papp A to B”: 0.06 ×10⁻⁶ cm/s (10 µM, 2 h, 37 °C).
`CC[C@H](C)C(=O)N1CCC(NC(=O)Nc2ccc(OC(F)(F)F)c(F)c2)CC1` gave a percent recovery of 40% (Caco-2 permeability; 10 µM, 60 min, pH 7.4 apical, 7.4 basolateral, replicate 2, added: verapamil; apical to basolateral).
With `O=C(OCc1ccccc1)c1ccc(O)cc1` the hydrolysed compound was 20.9 ± 2.6% (5 µM, 60 min, A-B direction).
For `CC(C)NCC(O)COc1cccc2ccccc12` (stereo not shown), the recovery was 90% (transwell permeability; 5 µM, 1 h).
The Papp of `CN1CCC(COc2cnc(-c3cccc(Cn4nc(-c5cccc(C#N)c5)ccc4=O)c3)nc2)CC1` is reported as 25.4 ×10⁻⁶ cm/s.

Excerpt of the above:
`CC[C@H](C)C(=O)N1CCC(NC(=O)Nc2ccc(OC(F)(F)F)c(F)c2)CC1` gave a percent recovery of 40% (Caco-2 permeability; 10 µM, 60 min, pH 7.4 apical, 7.4 basolateral, replicate 2, added: verapamil; apical to basolateral).
`C1CCc2c(c(N3CCOCC3)nc3sc4c(N5CCNCC5)nnnc4c23)C1` has a Papp A-B of 5.88 ×10⁻⁶ cm/s (10 µM, 120 min, pH 7.4, without inhibitor).
`C[C@]12CC[C@@H]3c4ccc(OS(=O)(=O)O)cc4CC[C@H]3[C@@H]1CCC2=O` — result for “Papp (B to A)”: 12.6 ×10⁻⁶ cm/s (no inhibitor, BCRP (novobiocin) set).
`CCCOc1nc(-c2cccc(O)c2)cc(-c2cc3ccccc3nc2N2CCOCC2)c1C#N` gave a selectivity ratio of 0.931 (MTT; 72 h, 10% FBS; baseline: WI-38 EC50 over Caco-2 IC50).
The recovery of `C[C@H]1O[C@@H](O[C@H]2[C@@H](O)C[C@H](O[C@H]3[C@@H](O)C[C@H](O[C@H]4CC[C@@]5(C)[C@H](CC[C@@H]6[C@@H]5C[C@@H](O)[C@]5(C)[C@@H](C7=CC(=O)OC7)CC[C@]65O)C4)O[C@@H]3C)O[C@@H]2C)C[C@H](O)[C@@H]1O` is reported as 87% (5 µM, 2 h, apical to basolateral).
